Literature values, collected from citations in different studies.
Lines come from different studies, so protocols differ. Numbers after ± are the reported error.
Chain of UniProt Q8TD19 (whole entry, looked up): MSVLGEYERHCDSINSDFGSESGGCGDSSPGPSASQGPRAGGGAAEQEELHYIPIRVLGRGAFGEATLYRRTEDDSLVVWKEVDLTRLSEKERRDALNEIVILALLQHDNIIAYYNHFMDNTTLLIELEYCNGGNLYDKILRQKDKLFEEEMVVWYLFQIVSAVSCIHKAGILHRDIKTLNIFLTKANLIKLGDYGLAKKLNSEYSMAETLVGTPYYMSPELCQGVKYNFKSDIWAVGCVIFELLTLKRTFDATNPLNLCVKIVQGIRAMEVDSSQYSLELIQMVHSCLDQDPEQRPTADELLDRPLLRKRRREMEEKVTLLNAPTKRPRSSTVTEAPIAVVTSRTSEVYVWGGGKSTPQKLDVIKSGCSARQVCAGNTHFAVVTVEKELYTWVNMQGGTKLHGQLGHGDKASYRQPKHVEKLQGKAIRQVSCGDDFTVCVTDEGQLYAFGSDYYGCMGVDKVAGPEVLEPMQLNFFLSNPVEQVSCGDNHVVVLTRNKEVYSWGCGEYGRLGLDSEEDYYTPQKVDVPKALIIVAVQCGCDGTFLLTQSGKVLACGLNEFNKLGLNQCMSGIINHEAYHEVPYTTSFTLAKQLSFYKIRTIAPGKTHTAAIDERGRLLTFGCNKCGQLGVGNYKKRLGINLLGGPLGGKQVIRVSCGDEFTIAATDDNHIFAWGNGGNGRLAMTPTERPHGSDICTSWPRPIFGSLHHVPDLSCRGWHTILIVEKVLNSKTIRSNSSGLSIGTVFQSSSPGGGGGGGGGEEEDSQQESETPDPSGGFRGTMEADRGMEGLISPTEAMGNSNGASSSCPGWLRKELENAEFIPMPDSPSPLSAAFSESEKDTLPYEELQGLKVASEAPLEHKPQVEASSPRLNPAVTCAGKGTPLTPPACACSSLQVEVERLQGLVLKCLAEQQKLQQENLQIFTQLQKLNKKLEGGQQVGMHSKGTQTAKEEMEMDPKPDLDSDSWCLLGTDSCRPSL

`Cc1cc(C)c(CNC(=O)c2cc(Cl)c3c(c2C)O[C@@](C)([C@H]2CC[C@H](N(C)C)CC2)O3)c(=O)[nH]1` has a Tmax of 3.5 h (human, plasma; oral, 50 mg single dose, study, median).
`O=C1[C@H](CC[C@H](O)c2ccc(F)cc2)[C@@H](c2ccc(O)cc2)N1c1ccc(F)cc1` gave a Tmax of ~3 h (human; dose not given, added: rifampin 18).
The Tmax of `COc1cc2c(Oc3ccc4[nH]c(C)cc4c3F)ccnc2cc1OCC1(N)CC1` is reported as 9.3 ± 5.1 h (human, fasted; oral, 5 mg).
For `CNCc1cc(-c2ccccc2F)n(S(=O)(=O)c2cccnc2)c1`, the Tmax was 1.5 h (human; 20 mg, single dose).
With `C[C@H]1CO[C@@H]2Cn3cc(C(=O)NCc4ccc(F)cc4F)c(=O)c(O)c3C(=O)N12` the Tmax was 1 h (human; oral solution, median).
`CCN1CCN(Cc2ccc(Nc3ncc(F)c(-c4cc(F)c5nc(C)n(C(C)C)c5c4)n3)nc2)CC1` has a Tmax of 5.93 h (human; 100 mg, single dose, tablet).
`Cc1ccccc1CN1C(=O)C2=C(CCN(Cc3ccccc3)C2)N2CCN=C12` gave a Tmax of 1 h (human; 625 mg once daily, added: rabeprazole 20 mg).
With `CNC(C)C1CCC(N)C(OC2C(N)CC(N)C(OC3OCC(C)(O)C(NC)C3O)C2O)O1` (centres unmarked) the MIC was > 8 µg/mL (Acinetobacter baumannii; clinical isolate RKI-No_32/16).
The Tmax of `Cc1cccc(F)c1N1CCC(N2Cc3cn(CC(C)(F)F)nc3N(Cc3ccccc3C(F)(F)F)C2=O)CC1` is reported as 1.5 h (human, fasted).
`CC(C)(O/N=C(\C(=O)N[C@@H]1C(=O)N2C(C(=O)[O-])=C(C[n+]3ccccc3)CS[C@H]12)c1csc(N)n1)C(=O)O` gave an MIC of ≤ 2 µg/mL (Klebsiella pneumoniae; clinical isolate RKI-No_908/15).
For `Nc1cc(C(F)(F)F)c(-c2nc(N3CCOCC3)nc(N3CCOCC3)n2)cn1`, the remaining activity was 100% (NEK9 (Homo sapiens, UniProt Q8TD19); enzyme activity; 10 µM; relative to: untreated).
